Measured values of several laboratories.
Several values in a cell are separate wells, animals, samples, runs or records. ± gives the spread as reported.
Sequence of UniProt P11509 (whole entry, looked up): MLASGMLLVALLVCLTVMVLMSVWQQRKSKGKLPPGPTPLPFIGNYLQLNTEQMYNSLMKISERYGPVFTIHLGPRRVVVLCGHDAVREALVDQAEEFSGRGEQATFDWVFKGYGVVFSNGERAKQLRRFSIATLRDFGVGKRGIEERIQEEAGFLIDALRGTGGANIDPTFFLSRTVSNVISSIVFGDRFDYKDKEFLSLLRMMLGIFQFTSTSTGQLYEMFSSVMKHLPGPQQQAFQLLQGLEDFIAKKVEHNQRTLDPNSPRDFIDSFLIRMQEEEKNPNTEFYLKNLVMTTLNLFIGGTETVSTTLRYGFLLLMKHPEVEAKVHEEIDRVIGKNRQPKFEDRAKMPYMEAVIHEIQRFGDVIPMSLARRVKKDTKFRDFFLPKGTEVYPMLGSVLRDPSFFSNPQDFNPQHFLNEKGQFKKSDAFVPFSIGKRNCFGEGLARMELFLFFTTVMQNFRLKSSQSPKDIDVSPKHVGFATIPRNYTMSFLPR
Sequence of UniProt P33261 (whole entry, looked up): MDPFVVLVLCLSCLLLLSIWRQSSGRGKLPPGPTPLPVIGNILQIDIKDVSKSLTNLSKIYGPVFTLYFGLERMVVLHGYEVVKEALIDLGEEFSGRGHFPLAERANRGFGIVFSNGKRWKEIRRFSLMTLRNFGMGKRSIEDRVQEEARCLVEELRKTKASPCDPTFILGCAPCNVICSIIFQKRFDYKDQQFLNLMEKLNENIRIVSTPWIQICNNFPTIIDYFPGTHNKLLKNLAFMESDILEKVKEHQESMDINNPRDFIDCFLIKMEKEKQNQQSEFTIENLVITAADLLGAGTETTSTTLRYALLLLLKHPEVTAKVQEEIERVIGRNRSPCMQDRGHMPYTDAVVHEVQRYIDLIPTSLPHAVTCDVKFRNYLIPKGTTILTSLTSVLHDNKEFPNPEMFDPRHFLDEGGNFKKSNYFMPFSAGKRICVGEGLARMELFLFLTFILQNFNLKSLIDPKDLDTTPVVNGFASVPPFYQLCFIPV
Sequence of UniProt P08183 (whole entry, looked up): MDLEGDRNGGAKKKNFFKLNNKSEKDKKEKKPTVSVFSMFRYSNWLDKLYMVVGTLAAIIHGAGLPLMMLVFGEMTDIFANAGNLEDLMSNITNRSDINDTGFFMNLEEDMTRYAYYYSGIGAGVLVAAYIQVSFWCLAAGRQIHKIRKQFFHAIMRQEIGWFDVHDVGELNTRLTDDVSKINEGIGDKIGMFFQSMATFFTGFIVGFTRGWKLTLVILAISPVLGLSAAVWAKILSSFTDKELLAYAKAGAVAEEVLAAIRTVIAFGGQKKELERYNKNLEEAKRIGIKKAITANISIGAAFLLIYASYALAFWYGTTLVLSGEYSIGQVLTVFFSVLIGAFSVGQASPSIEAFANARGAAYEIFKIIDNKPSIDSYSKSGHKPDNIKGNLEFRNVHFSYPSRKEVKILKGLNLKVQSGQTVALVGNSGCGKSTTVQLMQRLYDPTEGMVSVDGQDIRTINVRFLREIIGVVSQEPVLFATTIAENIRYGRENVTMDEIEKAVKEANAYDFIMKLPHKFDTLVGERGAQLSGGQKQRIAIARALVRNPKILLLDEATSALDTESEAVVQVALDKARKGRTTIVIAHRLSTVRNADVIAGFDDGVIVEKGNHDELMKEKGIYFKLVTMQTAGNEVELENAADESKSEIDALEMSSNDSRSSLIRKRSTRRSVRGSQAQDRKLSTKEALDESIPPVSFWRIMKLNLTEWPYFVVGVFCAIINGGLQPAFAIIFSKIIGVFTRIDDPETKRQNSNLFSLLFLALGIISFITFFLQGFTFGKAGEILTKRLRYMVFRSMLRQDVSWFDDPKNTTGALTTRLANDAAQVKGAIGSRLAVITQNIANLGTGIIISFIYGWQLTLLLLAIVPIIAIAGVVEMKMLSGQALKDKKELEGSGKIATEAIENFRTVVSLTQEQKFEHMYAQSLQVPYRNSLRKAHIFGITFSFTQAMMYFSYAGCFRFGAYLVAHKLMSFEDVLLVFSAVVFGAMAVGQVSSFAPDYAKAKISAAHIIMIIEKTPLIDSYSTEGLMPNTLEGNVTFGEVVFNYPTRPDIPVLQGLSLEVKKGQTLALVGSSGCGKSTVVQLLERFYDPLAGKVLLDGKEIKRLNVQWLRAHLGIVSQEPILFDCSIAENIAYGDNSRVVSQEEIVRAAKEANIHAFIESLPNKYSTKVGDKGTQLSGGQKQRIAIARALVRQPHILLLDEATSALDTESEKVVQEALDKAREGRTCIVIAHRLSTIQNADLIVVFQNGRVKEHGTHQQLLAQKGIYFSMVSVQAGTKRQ

`NC[C@]1(CC(=O)O)CC[C@H]([18F])CC1` gave a slow-phase half-life of 147 min (PET, arterial plasma; rhesus monkey, plasma parent; intravenous, baseline).
The time-dependent inhibition of `C[C@@H](c1ccc2nccn2c1)n1nnc2ncc(-c3cn[nH]c3)nc21` is reported as < 20% (CYP2C19 (Homo sapiens, UniProt P33261); human liver microsomes; 10 and 50 µM, 30 min preincubation, with: ± NADPH).
`COc1ccc(-n2cc(C(=O)N3C[C@]4(OC(=O)c5ccccc5NC(C)=O)CC[C@H](OC)[C@@]56[C@@H]4C[C@@H]([C@@H]35)[C@@]3(O)C[C@H](OC)[C@H]4C[C@@H]6[C@]3(O)[C@H]4OC)nn2)cc1` gave an AUC(0-inf) of 59.1 ng·h/mL (rat Sprague-Dawley, plasma; intravenous, 2 mg/kg).
With `CNC(=O)C[C@H](Cc1ccc(F)cc1)NC(=O)[C@@H](Cc1ccc(Cl)cc1Cl)NC(=O)[C@H](N)Cc1ccccc1C#N` the viability was 0.941 and 1.07 and 0.955 (Huh-7-ACE2; CellTiter-Glo; 0.000763 µM, 48 h, unit not given; reference: DMSO).
The half-life of `Cc1cc(-c2ccc3ccccc3c2)nnc1NCCN1CCN(C)CC1` is reported as > 30 min (Cytochrome P450 2A6 (CYP2A6, Homo sapiens, UniProt P11509); substrate; recombinant enzyme; 1000 nM).
For `COc1cc2c(cc1NC(=O)c1cncn1C)C[C@H]1[C@H]3CCCC[C@@]23CCN1C`, the half-life was 14.4 min (metabolic stability; mouse, liver microsomes).
`CN(C)CCCNC(=O)[C@@H]1NC(=O)[C@@H]2Cc3ccc(cc3)Oc3cc4cc(c3O)-c3ccc5c(c[nH]c5c3)C[C@@H](NC(=O)C(NC(=O)CCCCCN)c3ccc(O)cc3)C(=O)N[C@H](c3ccc(O)cc3)C(=O)N[C@H]4C(=O)N[C@@H](C(=O)N2C)c2ccc(cc2)Oc2cc1ccc2O` (stereo partly shown) has a hemolysis of 8.53% (human red blood cells; 2 µg/mL, 1 h, 37 °C, 1% DMSO).
With `CNC(=O)C[C@H](Cc1ccc(F)cc1)NC(=O)[C@@H](Cc1ccc(Cl)cc1Cl)NC(=O)[C@H](N)Cc1ccccc1[N+](=O)[O-]` the viability was 1.15 and 0.963 and 1.05 (Huh-7-ACE2; CellTiter-Glo; 0.195 µM, 48 h, unit not given; reference: DMSO).
The inhibition of `CCN(CC)CCOc1ccc(-c2nnn(Cc3ccc(OC)cc3)c2N)cc1` is reported as 86.3% (Cytochrome P450 2C8 (CYP2C8, Homo sapiens, UniProt P10632); CYP phenotyping; concentration not given).
Under cellular internalization, `N=C(N)NCCC[C@H](NC(=O)[C@H](CCCNC(=N)N)NC(=O)[C@H](CCCNC(=N)N)NC(=O)[C@H](CCC(N)=O)NC(=O)[C@H](CCCNC(=N)N)NC(=O)[C@H](CCCNC(=N)N)NC(=O)[C@H](CCCCN)NC(=O)[C@H](CCCCN)NC(=O)[C@H](CCCNC(=N)N)NC(=O)CNC(=O)[C@H](Cc1ccc(O)cc1)NC(=O)[C@H](Cc1ccccc1)NC(=O)[C@H](Cc1ccccc1)NC(=O)[C@H](Cc1ccccc1)NC(=O)Cc1ccc2ccccc2c1)C(=O)O` is recorded as “decreased” (RAW264.7; flow cytometry; FITC-labelled compound, with: amiloride 3 mM, 1 h pretreatment; reference: control).
With `CNC(=O)C[C@H](Cc1ccncc1)NC(=O)[C@@H](Cc1cccc(Br)c1)NC(=O)[C@@H](N)Cc1cccc(F)c1` the viability was 1.02 and 1.06 (Huh-7-ACE2; CellTiter-Glo; 0.000763 µM, 48 h, unit not given; reference: DMSO).
The prothrombin time of `O=C1NC2(CC2)COc2ncc(F)cc2[C@H]2COCCN2c2ccn3ncc1c3n2` is reported as 8.8 ± 0.3 s (Sprague-Dawley rat, male, plasma; oral, 2.5 mg/kg/day, end of recovery, 4-week repeated-dose toxicity).
`CNC(=O)C[C@H](Cc1ccncc1)NC(=O)[C@@H](Cc1cccc(Br)c1)NC(=O)[C@@H](N)Cc1ccsc1` has a viability of 1.07 and 1.01 and 0.997 (Huh-7-ACE2; CellTiter-Glo; 0.0244 µM, 48 h, unit not given; reference: DMSO).
`CC[C@H](C)[C@H](NC(=O)[C@H](Cc1ccccc1)NC(=O)[C@H](CCC(=O)O)NC(=O)[C@H](CCCCN)NC(=O)[C@H](C)NC(=O)[C@H](C)NC(=O)[C@H](CCC(N)=O)NC(=O)CNC(=O)[C@H](CCC(=O)O)NC(=O)[C@H](CC(C)C)NC(=O)[C@H](Cc1ccc(O)cc1)NC(=O)[C@H](CO)NC(=O)[C@H](CO)NC(=O)[C@@H](NC(=O)[C@H](CC(=O)O)NC(=O)[C@H](CO)NC(=O)[C@@H](NC(=O)[C@H](Cc1ccccc1)NC(=O)[C@@H](NC(=O)CNC(=O)[C@H](CCC(=O)O)NC(=O)[C@H](C)NC(=O)[C@@H](N)Cc1c[nH]cn1)[C@@H](C)O)[C@@H](C)O)C(C)C)C(=O)N[C@@H](C)C(=O)N[C@@H](Cc1c[nH]c2ccccc12)C(=O)N[C@@H](CC(C)C)C(=O)N[C@H](C(=O)N[C@@H](CCCCN)C(=O)NCC(=O)N[C@@H](CCCNC(=N)N)C(=O)NCC(=O)N[C@@H](Cc1ccccc1)C(=O)N[C@@H](Cc1ccccc1)C(=O)NCC(=O)O)C(C)C` has a remaining peptide of 93% (DPP-4 (recombinant); substrate, LC-MS; 500 µM, 4 h).
`CCOc1ccc(CN2CC[C@H]2C(=O)NC)cc1-c1cccc(C(=O)NC[C@@H]2COC(C)(C)O2)c1` has a viability of 0.921 and 0.933 and 0.937 (Huh-7-ACE2; CellTiter-Glo; 1.562 µM, 48 h, unit not given; reference: DMSO).
For `Cc1nc2cccc(OCC(C)(C)C(=O)NC(C)C)c2c(N)c1C(=O)[O-].[Na+]`, the revertant colonies was 39 ± 8 colonies/plate (Escherichia coli; Ames plate incorporation; WP2 uvrA; 0.80 mg/plate, with: with rat liver S9).
With `CNC(=O)CC1CN(C(=O)c2ccc(C(F)(F)F)cn2)CCN1C(=O)c1cccnn1` (stereo not shown) the viability was 1.1 and 1.02 and 1.06 (Huh-7-ACE2; CellTiter-Glo; 1.562 µM, 48 h, unit not given; reference: DMSO).
With `Cc1ccc(NS(=O)(=O)c2c(C(=O)N3CCCCCC3)c(C)n(C)c2C)c(Cl)c1` the viability was 97.9% (human cells; 11.11 µM, 60 h).
`CC(=O)NCCCC[C@@H]1NC(=O)[C@H](Cc2c[nH]c3c(C)cccc23)NC(=O)[C@H]([C@@H](C)O)NC(=O)[C@H](CC(N)=O)NC(=O)[C@@H](NC(C)=O)C(C)(C)SSC(C)(C)[C@@H](C(=O)N[C@@H](Cc2ccc(OCCN)cc2)C(=O)N[C@@H](Cc2ccc3ccccc3c2)C(=O)NC2(C(=O)N[C@@H](CCC(=O)O)C(=O)N[C@@H](CC(N)=O)C(=O)N[C@@H](Cc3cccnc3)C(=O)N(C)CC(N)=O)CCOCC2)NC1=O` gave an efflux ratio of 16.5 (ABCB1 (Homo sapiens, UniProt P08183); transport, inhibitor; LLC-PK1 expressing MDR1; 600 µM, 90 min, with: [3H]digoxin).

Repeated from above:
The time-dependent inhibition of `C[C@@H](c1ccc2nccn2c1)n1nnc2ncc(-c3cn[nH]c3)nc21` is reported as < 20% (CYP2C19 (Homo sapiens, UniProt P33261); human liver microsomes; 10 and 50 µM, 30 min preincubation, with: ± NADPH).
`COc1ccc(-n2cc(C(=O)N3C[C@]4(OC(=O)c5ccccc5NC(C)=O)CC[C@H](OC)[C@@]56[C@@H]4C[C@@H]([C@@H]35)[C@@]3(O)C[C@H](OC)[C@H]4C[C@@H]6[C@]3(O)[C@H]4OC)nn2)cc1` gave an AUC(0-inf) of 59.1 ng·h/mL (rat Sprague-Dawley, plasma; intravenous, 2 mg/kg).
